Measured values of several laboratories.
Compare with care: the assays were run in different laboratories. Values joined by “and” are separate records of one study, mostly repeats; a detail may differ. Numbers after ± are the reported error.
ptpB: Triple specificity protein phosphatase PtpB (ptpB, Mycobacterium tuberculosis, UniProt I6WXK4)
coaD: Phosphopantetheine adenylyltransferase (coaD, Mycobacterium tuberculosis, UniProt P9WPA5)
serotonin receptor-like protein: serotonin receptor-like protein (Schistosoma mansoni, UniProt A0A173FEI8)

The Km of `C[As](O)O` is reported as 6.4 µM (ArsV Ensifer adhaerens; enzyme activity, substrate, HPLC-ICP-MS; together with: NADPH and FAD).
Under activity, `O=C1Nc2ccc(S(=O)(=O)N(CCO)CCO)c3cccc1c23` is recorded as “inactive” (ptpB; enzyme activity, inhibitor; concentration not given).
`CC(C)[C@H](C(=O)Nc1ccc(C(=O)NO)cc1)c1ccccc1` has a maximum inhibition of 6.61% (human coronavirus OC43; virus-induced cell killing; MRC-5; screen).
The inhibition of `COc1ccc(N2C(=O)N(c3c(C)cccc3Cl)Cc3cnc(Nc4ccc(C5CCN(C)CC5)cc4OC)nc32)nc1` is reported as -9% (Tyrosine-protein kinase JAK1 (JAK1, Homo sapiens, UniProt P23458); kinase activity; 0.5 µM).
`c1ccc2cc([C@]34CNC[C@H]3C4)ccc2c1` has a dopamine uptake of 111% and 97.8% and 112% (Sodium-dependent dopamine transporter (SLC6A3, Homo sapiens, UniProt Q01959, F326A); inhibitor, [3H]dopamine uptake; 10 nM, F326A mutant; relative to: no inhibitor).
The cytotoxicity efficacy of `COc1ccc(Nc2cc(C(=O)NCCCN3CCN(c4ccccc4F)CC3)c3ccccc3n2)c(OC)c1` is reported as -31.5% (Vero-E6; CellTiter-Glo ATP; concentration not given, 72 h, second round 5-point; relative to: DMSO 0%, hyamine -100%, more negative, more toxic).
`CO[C@H]1/C=C/O[C@@]2(C)Oc3c(C)c(O)c4c(O)c(c(/C=N/N5CCN(C)CC5)c(O)c4c3C2=O)NC(=O)/C(C)=C\C=C\[C@H](C)[C@H](O)[C@@H](C)[C@@H](O)[C@@H](C)[C@H](OC(C)=O)[C@@H]1C`: thermal stabilization “inactive” (dppA (Mycobacterium tuberculosis, UniProt I6X811); thermal shift; dose response).
With `O=C(O)c1cnn(-c2ccccc2)c1OCCc1c[nH]c2ccccc12` the binding stoichiometry was 0.7 (coaD; ITC; concentration not given; ligand per protomer).
`O=C1C=CC(=O)c2ccccc21`: “free energy difference” 520 meV (Reaction center protein L chain, QB site (pufL, Cereibacter sphaeroides, UniProt P0C0Y8); Rhodobacter sphaeroides, reaction centres; together with: kBP 0.4 s^-1).
Under activity, `O=C1Nc2ccc(S(=O)(=O)NCCO)c3cccc1c23` is recorded as “inactive” (ptpB; enzyme activity, inhibitor; concentration not given).
`CN1CC[C@@]2(C)c3cc(OC(=O)Nc4ccccc4)ccc3N(C)[C@@H]12` gave an inhibition of 0% (human nicotinic α2β4 receptor; radioligand binding; 10 µM, together with: [3H]epibatidine).
For `COC(=O)[C@@H](NC(=O)c1nn(Cc2ccc(F)cc2)c2ccccc12)C(C)(C)C`, the maximal efficacy was 111% (Cannabinoid receptor 1, with Gi2 (CNR1, Homo sapiens, UniProt P21554); GTP turnover, agonist, refers to: Gi2 Gα subtype).
`CCCCCCCC[C@H]1O[C@H]1C/C=C/C=C/[C@H](O)CC(=O)NC1=C[C@](C)(CC)OC1=O` has a −TΔS of 25 kcal/mol (Na(+)-translocating NADH-quinone reductase subunit B, whole Na+-NQR complex (nqrB, Vibrio cholerae serotype O1, UniProt Q9KPS2); isothermal titration calorimetry; 20 °C).
`COCCCNC(=O)C1CCN(Cc2cc3ccccc3n2Cc2cccc(Cl)c2)CC1` has a cytotoxicity efficacy of 0% (Vero-E6; CellTiter-Glo ATP; concentration not given, 72 h, retest 8-point duplicates; relative to: DMSO 0%, hyamine -100%, more negative, more toxic).
`COc1ccc2c(c1)[nH]c1c(C)nccc12` has a remaining activity of 9.6 ± 5.2% (Dual specificity tyrosine-phosphorylation-regulated kinase 1A (Dyrk1a, Rattus norvegicus, UniProt Q63470); enzyme activity; 2 µM).
Under “log2 fold change”, `Oc1ccc2c3c1O[C@H]1[C@@H](O)CC[C@@]4(O)[C@@H](C2)N(CC2CCC2)CC[C@]314` is recorded as -0.09 (G-protein coupled receptor 52 (GPR52, Homo sapiens, UniProt Q9Y2T5); β-arrestin recruitment, TANGO luminescence; concentration not given; relative to: basal luminescence).
For `CN[C@@]1(c2ccccc2Cl)CCCCC1=O`, the inhibition was 33% (sigma receptor; radioligand binding, agonist, radioligand displacement; 30 µM).
With `Nc1ncnc2c1ncn2[C@@H]1O[C@H](COP(=O)(O)OP(=O)(O)OP(=O)(O)O)[C@@H](O)[C@H]1O` the Km was 43 ± 3 µM (coaD; substrate; together with: 4'-phosphopantetheine 40 µM).
`CC(NS(=O)(=O)c1ccc2c3c(cccc13)C(=O)N2)C1C2CC3CC(C2)CC1C3` (stereo not shown) — result for activity: “inactive” (ptpB; enzyme activity, inhibitor; concentration not given).
`CCCc1cc(O)c2c(c1)OC(C)(C)[C@@H]1CCC(C)=C[C@@H]21` gave a Hill coefficient of 1.88 ± 0.1 (Transient receptor potential cation channel subfamily V member 3 (TRPV3, Homo sapiens, UniProt Q8NET8, L563A); calcium uptake, agonist; HEK293S; mutant L563A, site 1).
The Emax of `CN(C)CCc1c[nH]c2ccccc12` is reported as 2 ± 1% (serotonin receptor-like protein; cAMP level, agonist, GloSensor luminescence; relative to: 5-HT maximal response).
For `CC(NC(C)(C)C)C(=O)c1cccc(Cl)c1` (stereo not shown), the IC50 shift was 13 fold (Proton-gated ion channel (glvI, Gloeobacter violaceus, UniProt Q7NDN8, T256F); proton-gated current, inhibitor, two-electrode voltage clamp; Xenopus oocytes; relative to: T214F mutant over wild type).
The Emax of `C=CCN(CC=C)CCc1c[nH]c2ccc(OC)cc12` is reported as 3 ± 1% (serotonin receptor-like protein; cAMP level, agonist, GloSensor luminescence; relative to: 5-HT maximal response).
With `C[C@]12CC[C@H]3[C@@H](CC=C4CC(O)CC[C@@]43CO)[C@@H]1CCC2O` (stereo partly shown) the thermal shift was no more than 10 °C (Translocator protein (TSPO, Homo sapiens, UniProt P30536); cellular thermal shift; Huh-7; 100 µM; relative to: DMSO).
With `COc1ccc2[nH]cc(CCN(C)C)c2c1` the Emax was 4% (serotonin receptor-like protein; cAMP level, agonist, GloSensor luminescence; relative to: 5-HT maximal response).
Under activity, `NS(=O)(=O)c1ccc2c3c(cccc13)C(=O)N2` is recorded as “inactive” (ptpB; enzyme activity, inhibitor; concentration not given).
For `Cc1ccc2[nH]cc(CCN)c2c1`, the Emax was 81 ± 2% (serotonin receptor-like protein; cAMP level, agonist, GloSensor luminescence; relative to: 5-HT maximal response).
With `Cc1ccc(NC(=O)c2ccc(CN3CCN(C)CC3)cc2)cc1Nc1nc(-c2cccnc2)cs1` the maximum inhibition was 16% (human coronavirus OC43; virus-induced cell killing; MRC-5; screen).

A few entries again:
`COCCCNC(=O)C1CCN(Cc2cc3ccccc3n2Cc2cccc(Cl)c2)CC1` has a cytotoxicity efficacy of 0% (Vero-E6; CellTiter-Glo ATP; concentration not given, 72 h, retest 8-point duplicates; relative to: DMSO 0%, hyamine -100%, more negative, more toxic).
`COc1ccc2c(c1)[nH]c1c(C)nccc12` has a remaining activity of 9.6 ± 5.2% (Dual specificity tyrosine-phosphorylation-regulated kinase 1A (Dyrk1a, Rattus norvegicus, UniProt Q63470); enzyme activity; 2 µM).
Under “log2 fold change”, `Oc1ccc2c3c1O[C@H]1[C@@H](O)CC[C@@]4(O)[C@@H](C2)N(CC2CCC2)CC[C@]314` is recorded as -0.09 (G-protein coupled receptor 52 (GPR52, Homo sapiens, UniProt Q9Y2T5); β-arrestin recruitment, TANGO luminescence; concentration not given; relative to: basal luminescence).
